Assay results of several laboratories.
Every numbered part comes from another study and shows a few of its results, in no order.

Series 1
Target: Histone acetyltransferase KAT6A, both winged helices, GST fusion (KAT6A, Homo sapiens, UniProt Q92794, residues 1-181)
Method: protein binding microarray
Form: double-stranded DNA, one strand shown
Medium: in vitro
Tested at: not given
Notes: 8-mer, flanks averaged, mean of 2 arrays, mostly near background
Reference: not given
Reading: higher = stronger binding
Construct (chain): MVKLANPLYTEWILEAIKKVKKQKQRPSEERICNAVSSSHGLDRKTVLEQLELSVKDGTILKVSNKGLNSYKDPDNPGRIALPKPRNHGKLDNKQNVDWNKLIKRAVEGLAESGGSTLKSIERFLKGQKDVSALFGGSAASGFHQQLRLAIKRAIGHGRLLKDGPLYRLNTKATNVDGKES
| Oligonucleotide | E-score |
| --- | --- |
| CAATCACC | -0.0567 |
| AGTTTCCA | -0.0996 |
| CTCGGAAA | 0.0846 |
| GGAGACAA | -0.11 |
| AAGAACCT | -0.175 |
| TCTTGGAA | -0.0967 |
| ATCCCACA | -0.233 |
| ACGCCAGC | 0.0762 |

Series 2
Target: Ras GTPase-activating protein-binding protein 1, RRM domain (G3BP1, Homo sapiens, UniProt Q13283)
UniProt Q13283, sequence (whole entry, looked up): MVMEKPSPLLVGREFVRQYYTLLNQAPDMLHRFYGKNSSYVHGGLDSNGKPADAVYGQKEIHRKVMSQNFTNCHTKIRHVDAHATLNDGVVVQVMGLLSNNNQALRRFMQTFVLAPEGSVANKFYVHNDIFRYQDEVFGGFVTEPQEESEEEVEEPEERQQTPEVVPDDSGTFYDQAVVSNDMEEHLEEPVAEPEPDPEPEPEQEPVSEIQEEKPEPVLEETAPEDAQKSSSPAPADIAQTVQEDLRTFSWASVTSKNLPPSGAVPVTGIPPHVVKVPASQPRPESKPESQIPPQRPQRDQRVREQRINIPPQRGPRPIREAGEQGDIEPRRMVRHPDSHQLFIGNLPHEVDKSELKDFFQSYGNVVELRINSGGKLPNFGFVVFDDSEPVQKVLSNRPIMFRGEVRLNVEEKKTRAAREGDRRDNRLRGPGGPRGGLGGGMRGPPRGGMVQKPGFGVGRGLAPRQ
Method: RNA Bind-n-Seq
Form: RNA
Medium: in vitro
Tested at: 1 µM
Notes: whole 134-nt RNA, ends assumed
With: 150 mM KCl
Reference: input library
Reading: higher = stronger binding
Shared flanks, not repeated: GGGAGUUCUACAGUCCGACGAUC … UGGAAUUCUCGGGUGUCAAGG
| Oligonucleotide | log2 enrichment |
| --- | --- |
| AAGUCCUGUGCUACACAUCGUAUGUACCGAAUCGGGAAAGGGAAAGGGAAAAAGGGAAAGUAUUAUGUUACGCCGUUCGGAUCUGCACUU | 0.353 |
| UUUUACAACCCCAAUUUAAAGAAAGUUGUAGAGGCCCACAAGAUCGUUCUCUGCGCUGUAAGCCAUGUUUUCAUGCUGCUUUUCAAUGUG | -0.248 |
| CAAGUCCUGUGCUACACAUCGUAUGUACCGAAUCGGUUUUUUUGGUGGUUUUUGGAAAGUAUUAUGUUACGCCGUUCGGAUCUGCACUUC | -0.389 |
| UCCUCAAGUCCUGUGCUACACAUCGUAUGUACCGAAUCGGCGGGCGGCGGGAAAGUAUUAUGUUACGCCGUUCGGAUCUGCACUUCCAGC | -0.162 |
| CACAGACAACACGCACCCACACAGACACAGAGGGAAGGGGUUGGGAUGGAGACAGGGUGCACAGCAGGGCGGGGUAGGACCCCAGCCCCU | -0.13 |

Series 3
Target: Prothrombin, mature alpha-thrombin (F2, Homo sapiens, UniProt P00734)
Method: aptamer microarray, sandwich
Form: DNA with 2'F-ANA
Medium: in vitro
Tested at: 200 nM
Notes: whole 15-mer aptamer, many near background
With: Cy3 exosite-II aptamer, 400 nM
Reading: higher = stronger binding
Oligonucleotide: GGTTGGTGTGGTTGG
| Modification | mean fluorescence intensity [a.u.] |
| --- | --- |
| 2'F-ANA at 1 2 3 6 10 11 12 14 | 53.6 |
| 2'F-ANA at 1 6 7 8 10 12 13 14 | 60.1 |
| 2'F-ANA at 2 3 4 6 8 9 11 13 | 437 |
| 2'F-ANA at 1 2 4 5 6 7 8 10 15 | 54 |
| 2'F-ANA at 4 5 6 8 9 10 11 12 14 15 | 47.4 |
| 2'F-ANA at 1 4 5 6 7 8 9 11 13 14 15 | 97.7 |
| 2'F-ANA at 1 7 8 13 14 | 64.5 |
| 2'F-ANA at 1 3 6 7 9 12 14 | 95.6 |
| 2'F-ANA at 3 5 6 8 9 11 14 | 79.1 |

Further values, each from its own experiment
| Molecule | target | test | test system | conditions | scale | endpoint | value |
| --- | --- | --- | --- | --- | --- | --- | --- |
| PhoQ, residues 284 288 289 292 302 303 SLKLQV | PhoP, residues 12 14 15 18 19 STWGI (Escherichia coli, UniProt P23836) | Sort-seq, refers to: YFP reporter | E. coli | PhoQ-PhoP variant library, with: 10 µM Mg2+ | reference: high Mg2+ state, higher = stronger signaling | fold induction | 9.8 |

Some of these lines once more (series 1):
| Oligonucleotide | E-score |
| --- | --- |
| TCTTGGAA | -0.0967 |
| AGTTTCCA | -0.0996 |
| CAATCACC | -0.0567 |
